{"data": "Published values of several laboratories", "note": "Every numbered part comes from another study and shows a few of its results, in no order. Values joined by “and” are separate records of one study, mostly repeats; a detail may differ.", "sequence of UniProt Q9Y5S2 (whole entry, looked up)": "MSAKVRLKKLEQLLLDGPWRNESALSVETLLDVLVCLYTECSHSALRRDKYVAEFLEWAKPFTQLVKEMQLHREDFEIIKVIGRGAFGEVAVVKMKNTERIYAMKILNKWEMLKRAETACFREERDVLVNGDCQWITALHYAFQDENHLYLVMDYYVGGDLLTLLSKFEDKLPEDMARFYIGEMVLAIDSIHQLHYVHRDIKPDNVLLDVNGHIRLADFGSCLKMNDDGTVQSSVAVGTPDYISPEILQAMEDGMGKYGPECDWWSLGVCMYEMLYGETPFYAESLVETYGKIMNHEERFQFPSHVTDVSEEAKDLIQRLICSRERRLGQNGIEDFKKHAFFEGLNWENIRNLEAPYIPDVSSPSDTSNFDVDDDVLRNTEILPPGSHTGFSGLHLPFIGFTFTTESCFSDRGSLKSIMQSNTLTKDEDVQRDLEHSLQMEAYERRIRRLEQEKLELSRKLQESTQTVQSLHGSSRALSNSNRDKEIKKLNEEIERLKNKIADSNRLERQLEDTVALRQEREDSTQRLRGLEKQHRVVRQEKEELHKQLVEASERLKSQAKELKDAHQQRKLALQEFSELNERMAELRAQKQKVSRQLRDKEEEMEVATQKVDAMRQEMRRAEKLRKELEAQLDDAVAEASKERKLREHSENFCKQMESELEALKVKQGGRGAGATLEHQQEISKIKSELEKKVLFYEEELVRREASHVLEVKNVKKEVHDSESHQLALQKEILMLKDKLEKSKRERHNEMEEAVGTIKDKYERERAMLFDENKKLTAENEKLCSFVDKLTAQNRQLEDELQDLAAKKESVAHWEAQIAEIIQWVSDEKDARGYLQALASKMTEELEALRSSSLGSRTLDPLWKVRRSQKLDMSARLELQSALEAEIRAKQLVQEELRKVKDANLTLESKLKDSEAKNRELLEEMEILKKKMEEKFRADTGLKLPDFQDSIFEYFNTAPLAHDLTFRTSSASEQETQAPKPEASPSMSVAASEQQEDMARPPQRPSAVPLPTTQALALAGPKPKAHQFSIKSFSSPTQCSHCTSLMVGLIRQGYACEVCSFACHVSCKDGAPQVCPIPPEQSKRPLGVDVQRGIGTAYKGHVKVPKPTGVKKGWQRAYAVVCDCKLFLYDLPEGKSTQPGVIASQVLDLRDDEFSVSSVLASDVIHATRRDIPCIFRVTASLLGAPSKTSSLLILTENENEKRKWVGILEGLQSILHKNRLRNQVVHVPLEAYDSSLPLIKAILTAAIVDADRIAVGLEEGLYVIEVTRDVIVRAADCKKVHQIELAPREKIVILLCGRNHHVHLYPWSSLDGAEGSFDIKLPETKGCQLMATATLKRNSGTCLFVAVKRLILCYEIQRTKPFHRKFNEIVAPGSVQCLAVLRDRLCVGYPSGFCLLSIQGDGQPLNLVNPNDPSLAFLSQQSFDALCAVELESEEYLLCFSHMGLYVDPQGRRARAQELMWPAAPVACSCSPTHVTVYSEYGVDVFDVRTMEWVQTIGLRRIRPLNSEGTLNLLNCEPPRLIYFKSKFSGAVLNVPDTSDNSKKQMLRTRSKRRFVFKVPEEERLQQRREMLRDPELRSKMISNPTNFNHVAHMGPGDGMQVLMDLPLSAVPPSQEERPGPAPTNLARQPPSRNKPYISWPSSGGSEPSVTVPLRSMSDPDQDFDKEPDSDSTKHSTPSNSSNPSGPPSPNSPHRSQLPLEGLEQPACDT", "sequence of UniProt P51812 (whole entry, looked up)": "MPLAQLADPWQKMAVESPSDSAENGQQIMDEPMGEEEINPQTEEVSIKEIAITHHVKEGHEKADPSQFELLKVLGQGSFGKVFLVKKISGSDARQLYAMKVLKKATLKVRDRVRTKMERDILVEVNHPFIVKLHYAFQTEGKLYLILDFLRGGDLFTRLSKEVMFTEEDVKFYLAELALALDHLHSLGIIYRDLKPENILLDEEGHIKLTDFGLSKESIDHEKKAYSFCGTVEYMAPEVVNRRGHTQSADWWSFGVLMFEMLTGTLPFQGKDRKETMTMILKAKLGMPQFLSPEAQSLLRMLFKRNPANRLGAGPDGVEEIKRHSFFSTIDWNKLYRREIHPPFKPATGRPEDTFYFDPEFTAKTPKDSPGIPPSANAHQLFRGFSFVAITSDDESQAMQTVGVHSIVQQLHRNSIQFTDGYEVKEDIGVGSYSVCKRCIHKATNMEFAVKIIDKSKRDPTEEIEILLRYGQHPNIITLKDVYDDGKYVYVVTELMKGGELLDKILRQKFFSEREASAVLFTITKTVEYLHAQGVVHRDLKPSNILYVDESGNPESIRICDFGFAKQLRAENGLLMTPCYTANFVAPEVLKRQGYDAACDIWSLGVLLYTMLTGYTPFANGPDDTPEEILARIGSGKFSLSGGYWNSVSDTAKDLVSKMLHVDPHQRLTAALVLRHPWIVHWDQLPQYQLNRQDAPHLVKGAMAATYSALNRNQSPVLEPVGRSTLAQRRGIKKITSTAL"}
{"data": "Block 1", "target": "Calcium/calmodulin-dependent protein kinase type II subunit alpha (CAMK2A, Homo sapiens, UniProt Q9UQM7)", "observed": "enzyme activity", "action": "inhibitor", "tested at": "10 µM", "sequence of UniProt Q9UQM7 (whole entry, looked up)": "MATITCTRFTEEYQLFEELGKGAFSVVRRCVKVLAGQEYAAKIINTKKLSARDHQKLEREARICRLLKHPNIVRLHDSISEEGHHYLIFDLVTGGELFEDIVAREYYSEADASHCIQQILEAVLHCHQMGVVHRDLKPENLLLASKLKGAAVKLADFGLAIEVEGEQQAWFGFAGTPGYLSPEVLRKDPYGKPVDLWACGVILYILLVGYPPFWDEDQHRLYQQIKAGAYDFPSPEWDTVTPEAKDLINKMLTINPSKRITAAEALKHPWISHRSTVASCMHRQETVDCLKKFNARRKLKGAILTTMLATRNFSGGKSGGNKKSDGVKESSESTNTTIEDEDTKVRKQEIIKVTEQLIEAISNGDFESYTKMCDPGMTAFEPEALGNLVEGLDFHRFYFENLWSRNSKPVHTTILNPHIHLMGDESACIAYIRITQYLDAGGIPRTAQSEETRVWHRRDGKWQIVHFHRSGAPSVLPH"}
{"SMILES": "CC(C)=CCC/C(C)=C/CC/C(C)=C/Cc1c(O)c2ccccc2oc1=O", "inhibition [%]": -1}
{"SMILES": "Cc1c(N)nc([C@H](CC(N)=O)NC[C@H](N)C(N)=O)nc1C(=O)N[C@H](C(=O)N[C@H](C)[C@@H](O)[C@H](C)C(=O)N[C@H](C(=O)NCCc1nc(-c2nc(C(=O)NCCC[S+](C)C)cs2)cs1)[C@@H](C)O)[C@@H](O[C@@H]1O[C@@H](CO)[C@@H](O)[C@H](O)[C@@H]1O[C@H]1O[C@H](CO)[C@@H](O)[C@H](OC(N)=O)[C@@H]1O)c1cnc[nH]1", "inhibition [%]": -8}
{"SMILES": "CCN(CC)CCOC(=O)C(O)(c1ccccc1)c1ccccc1", "inhibition [%]": 6}
{"SMILES": "NC(=O)CC[C@@H]1NC(=O)[C@H](Cc2ccccc2)NC(=O)[C@H](Cc2ccc(O)cc2)NC(=O)[C@@H](N)CSSC[C@@H](C(=O)N2CCC[C@H]2C(=O)N[C@@H](CCCN=C(N)N)C(=O)NCC(N)=O)NC(=O)[C@H](CC(N)=O)NC1=O", "inhibition [%]": 1}
{"SMILES": "COc1cc2c(cc1OC)[C@@H]1C(=O)c3ccc4c(c3O[C@@H]1CO2)C[C@H](C(C)C)O4", "inhibition [%]": -50}
{"SMILES": "CC(C)c1ccc2c(c1O)CC[C@H]1C3=C(CC[C@]21C)C(=O)OC3", "inhibition [%]": -8}
{"SMILES": "CCN1C[C@]2(C)CC[C@H](OC)[C@@]34C1[C@]1(OCO[C@@]15C[C@H](OC)[C@H]1C[C@]3(O)[C@@H]5[C@H]1OC)[C@@H](OC(C)=O)[C@H]24", "inhibition [%]": -11}
{"SMILES": "COc1cc2c(cc1OC)[C@H](C)NCC2", "inhibition [%]": 25}
{"data": "Block 2", "target": "Diamine acetyltransferase 1 (Homo sapiens, UniProt P21673)", "action": "inhibitor", "tested at": "10 µM", "relative to": "control", "Residues (P21673 1-171)": "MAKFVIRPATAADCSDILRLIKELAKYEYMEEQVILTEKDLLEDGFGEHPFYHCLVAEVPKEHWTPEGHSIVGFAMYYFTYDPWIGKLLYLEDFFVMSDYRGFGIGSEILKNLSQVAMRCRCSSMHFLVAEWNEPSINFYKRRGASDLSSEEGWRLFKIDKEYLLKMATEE"}
{"Compound": "COC(=O)c1ccccc1C(=O)OC", "remaining activity [%]": 93.7}
{"Compound": "C[C@H]1CCC/C=C/[C@@H]2C[C@H](O)C[C@H]2[C@H](O)/C=C/C(=O)O1", "remaining activity [%]": 99.8}
{"Compound": "C=CCc1cc(OC)c2c(c1)OCO2", "remaining activity [%]": 101}
{"Compound": "CCOC1c2c(ccc3c2OCO3)-c2ccc3cc4c(cc3c2N1C)OCO4 (stereo not shown)", "remaining activity [%]": 113}
{"Compound": "c1c2c(cc3c1OCO3)-c1cc3ccc4c(c3c[n+]1CC2)OCO4", "remaining activity [%]": 100}
{"data": "Block 3", "cell line": "mouse MPNST tumor cells", "method": "high-content immunofluorescence imaging", "measured": "nuclear SOX9", "tested at": "10 µM", "time": "12 h", "notes": "mean of 2 replicates", "relative to": "DMSO control", "reading": "higher = more nuclear SOX9"}
{"Compound": "O=C1CCCN1CC#CCN1CCCC1", "nuclear SOX9 intensity": "101 % of DMSO"}
{"Compound": "O=C(CCCN1CCC(n2c(=O)[nH]c3ccccc32)CC1)c1ccc(F)cc1", "nuclear SOX9 intensity": "146 % of DMSO"}
{"Compound": "CN(C)C(=O)Oc1ccc[n+](C)c1", "nuclear SOX9 intensity": "96.3 % of DMSO and 93 % of DMSO"}
{"Compound": "C[C@]12CCC(=O)C=C1C=C[C@@H]1[C@@H]2CC[C@@]2(C)[C@H]1CC[C@@]2(O)CCC(=O)O", "nuclear SOX9 intensity": "106 % of DMSO"}
{"Compound": "C[C@]12C/C(=C/O)C(=O)C[C@@H]1CC[C@@H]1[C@@H]2CC[C@@]2(C)[C@H]1CC[C@]2(C)O", "nuclear SOX9 intensity": "82.1 % of DMSO"}
{"Compound": "CCN(C)C(=O)Oc1cccc([C@H](C)N(C)C)c1", "nuclear SOX9 intensity": "90.8 % of DMSO and 101 % of DMSO"}
{"Compound": "CCCC(C)C1(CC)C(=O)NC(=O)NC1=O (stereo not shown)", "nuclear SOX9 intensity": "108 % of DMSO"}
{"data": "Block 4", "cell line": "HEK-293T/ACE2", "method": "Hoechst nuclei count", "tested at": "concentration not given", "time": "16 (unit not given)", "relative to": "vehicle"}
{"Structure (SMILES)": "O=C1C(O)=C([C@H]2CC[C@H](c3ccc(Cl)cc3)CC2)C(=O)c2ccccc21", "viability": "94.9%"}
{"Structure (SMILES)": "COC[C@@H](NC(C)=O)C(=O)NCc1ccccc1", "viability": "107%"}
{"Structure (SMILES)": "O=c1[nH]cnc2c1ncn2[C@H]1CC[C@@H](CO)O1", "viability": "107%"}
{"Structure (SMILES)": "O=C(O)[C@@H](S)[C@@H](S)C(=O)O", "viability": "106%"}
{"Structure (SMILES)": "C[C@]1(O)CC[C@H]2[C@@H]3CCC4=CC(=O)CC[C@]4(C)[C@@]3(F)[C@@H](O)C[C@@]21C", "viability": "105%"}
{"Structure (SMILES)": "COC(=O)N[C@H](C(=O)N[C@@H](Cc1ccccc1)[C@@H](O)CN(Cc1ccc(-c2ccccn2)cc1)NC(=O)[C@@H](NC(=O)OC)C(C)(C)C)C(C)(C)C", "viability": "97.1%"}
{"Structure (SMILES)": "CN(N=O)C(=O)N[C@@H](C=O)[C@@H](O)[C@H](O)[C@H](O)CO", "viability": "98.7%"}
{"Structure (SMILES)": "N#Cc1ccccc1-c1cc(-c2ccccn2)cn(-c2ccccc2)c1=O", "viability": "98.2%"}
{"Structure (SMILES)": "COc1ccc(CN(C(=O)[C@@H](N)Cc2c(C)cc(C(N)=O)cc2C)[C@@H](C)c2nc(-c3ccccc3)c[nH]2)cc1C(=O)O", "viability": "101%"}
{"Structure (SMILES)": "CCOC(=O)C1=C[C@@H](OC(CC)CC)[C@H](NC(C)=O)[C@@H](N)C1", "viability": "99.1%"}
{"Structure (SMILES)": "CCCCC(=O)N(Cc1ccc(-c2ccccc2-c2nnn[nH]2)cc1)[C@H](C(=O)O)C(C)C", "viability": "101%"}
{"Structure (SMILES)": "CC(C[N+](C)(C)C)OC(N)=O (stereo not shown)", "viability": "100%"}
{"Structure (SMILES)": "C/C(O)=C(\\C#N)C(=O)Nc1ccc(C(F)(F)F)cc1", "viability": "90.4%"}
{"Structure (SMILES)": "COC(=O)CCc1ccc(OCC(O)CNC(C)C)cc1 (stereo not shown)", "viability": "99.7%"}
{"Structure (SMILES)": "C[C@H](CCC(=O)NCCS(=O)(=O)O)[C@H]1CC[C@H]2[C@@H]3[C@@H](O)C[C@@H]4C[C@H](O)CC[C@]4(C)[C@H]3CC[C@]12C", "viability": "105%"}
{"Structure (SMILES)": "C[Se]CC[C@H](N)C(=O)O", "viability": "96.9%"}
{"Structure (SMILES)": "COc1ccc(C[C@@H]2c3cc(OC)c(OC)cc3CC[N@+]2(C)CCC(=O)OCCCCCOC(=O)CC[N@@+]2(C)CCc3cc(OC)c(OC)cc3[C@H]2Cc2ccc(OC)c(OC)c2)cc1OC", "viability": "99%"}
{"Structure (SMILES)": "CN(C)/N=N/c1[nH]cnc1C(N)=O", "viability": "98.3%"}
{"Structure (SMILES)": "Cc1ccc(N(CC2=NCCN2)c2cccc(O)c2)cc1", "viability": "99.5%"}
{"Structure (SMILES)": "C#C[C@]1(O)CC[C@H]2[C@@H]3CCC4=Cc5oncc5C[C@]4(C)[C@H]3CC[C@@]21C", "viability": "97%"}
{"Structure (SMILES)": "CC[C@]1(O)C[C@@H]2CN(CCc3c([nH]c4ccccc34)[C@@](C(=O)OC)(c3cc4c(cc3OC)N(C)[C@H]3[C@@](O)(C(=O)OC)[C@H](OC(C)=O)[C@]5(CC)C=CCN6CC[C@]43[C@@H]65)C2)C1", "viability": "0.77%"}
{"Structure (SMILES)": "CC(=O)OCC(CCn1cnc2cnc(N)nc21)COC(C)=O", "viability": "101%"}
{"Structure (SMILES)": "CC(=O)/N=c1/sc(S(N)(=O)=O)nn1C", "viability": "103%"}
{"Structure (SMILES)": "O=C(O)C[C@H](O)C[C@H](O)/C=C/c1c(C2CC2)nc2ccccc2c1-c1ccc(F)cc1", "viability": "111%"}
{"Structure (SMILES)": "COc1ccc(-n2nc(C(N)=O)c3c2C(=O)N(c2ccc(N4CCCCC4=O)cc2)CC3)cc1", "viability": "98.8%"}
{"data": "Block 5", "Structure (SMILES)": "[N-]=[N+]=CC(=O)CC[C@H](N)C(=O)O", "species": "C57BL/6 CES1-/- mouse, both sexes", "route": "intravenous", "dose": "1 mg/kg"}
{"conditions": "day 8", "body weight": "105% and 100% and 104% and 97%"}
{"conditions": "day 16", "body weight": "85% and 70% and 77% and 78%"}
{"conditions": "day 10", "body weight": "96% and 93% and 92% and 100% and 95%"}
{"conditions": "day 17", "body weight": "68% and 70% and 78%"}
{"conditions": "day 14", "body weight": "83% and 80% and 74% and 82% and 85% and 87% and 73%"}
{"data": "Single results of other studies", "observed": "enzyme activity", "tested at": "0.5 µM"}
{"SMILES": "O=c1[nH]c2ccccc2n1C1CCN(Cc2ccc(-c3[nH]c4cc5ncnc5cc4nc3-c3ccccc3)cc2)CC1", "target": "CDC42BPB (Homo sapiens, UniProt Q9Y5S2)", "remaining activity": "101%"}
{"SMILES": "CN[C@@H]1C[C@H]2O[C@@](C)([C@@H]1OC)n1c3ccccc3c3c4c(c5c6ccccc6n2c5c31)C(=O)NC4", "target": "RPS6KA3 (Homo sapiens, UniProt P51812)", "assay": "inhibitor", "scale": "relative to: control", "remaining activity": "-1.27%"}
{"note": "For quick reference, copied from above (block 1):"}
{"SMILES": "CC(C)c1ccc2c(c1O)CC[C@H]1C3=C(CC[C@]21C)C(=O)OC3", "inhibition [%]": -8}
{"SMILES": "CCN1C[C@]2(C)CC[C@H](OC)[C@@]34C1[C@]1(OCO[C@@]15C[C@H](OC)[C@H]1C[C@]3(O)[C@@H]5[C@H]1OC)[C@@H](OC(C)=O)[C@H]24", "inhibition [%]": -11}
{"SMILES": "COc1cc2c(cc1OC)[C@H](C)NCC2", "inhibition [%]": 25}
